# Measurements of several laboratories.
# Each line is one published result; not all experiments were run side by side. ± marks the error that the study gave.
Compound,cell line,assay,conditions,scale,viability
CC(C)C[C@H](NC(=O)CNC(=O)[C@H](C)NC(=O)[C@H](CCCNC(=N)N)NC(=O)[C@H](CO)NC(=O)[C@H](CO)NC(=O)[C@H](CCCNC(=N)N)NC(=O)[C@@H](N)[C@@H](C)O)C(=O)N[C@@H](CCC(N)=O)C(=O)N[C@@H](Cc1c[nH]c2ccccc12)C(=O)N1CCC[C@H]1C(=O)N[C@H](C(=O)NCC(=O)N[C@@H](CCCNC(=N)N)C(=O)N[C@H](C(=O)N[C@@H](Cc1cnc[nH]1)C(=O)N[C@@H](CCCNC(=N)N)C(=O)N[C@@H](CC(C)C)C(=O)N[C@@H](CC(C)C)C(=O)N[C@@H](CCCNC(=N)N)C(=O)N[C@@H](CCCCN)C(=O)O)C(C)C)C(C)C,WI-38,MTT,"1 µM, 48 h",reference: water-treated,91 ± 6%
COc1cc(-c2oc3cc(O)c(OC)c(O)c3c(=O)c2OC)ccc1O,RBL-2H3,"cell growth or viability, MTT",100 µM,,> 90%
CC(C)c1ccc2c(c1)CC[C@H]1[C@](C)(C(=O)OCC#CCN3CCCC3)CCC[C@]21C,BHK-21-hACE2,,"20.0 µM, 48 (unit not given)",,91.5%
C=C(C(=O)O)[C@@H]1CC[C@@]2(C)CCC(=O)C(C)=C2[C@H]1O,RBL-2H3,"cell growth or viability, MTT",100 µM,,> 90%
CC(C)C1=C[C@@]23CC[C@@H]4[C@](C)(CCC[C@@]4(C)C(=O)OCC#CCN4CCOCC4)[C@H]2C[C@@H]1[C@H]1C(=O)CCC(=O)[C@H]13,BHK-21-hACE2,,"20.0 µM, 48 (unit not given)",,< 50%
C=C(C(=O)O)[C@@H]1CC[C@@]2(C)CCC(=O)C(C)=C2C1,RBL-2H3,"cell growth or viability, MTT",100 µM,,> 90%
CSCC[C@H](N)C(=O)N[C@@H](CCC(=O)O)C(=O)N[C@H](C(=O)NCC(=O)N[C@@H](Cc1c[nH]c2ccccc12)C(=O)N[C@@H](Cc1ccc(O)cc1)C(=O)N[C@@H](CCCNC(=N)N)C(=O)N[C@@H](CO)C(=O)N1CCC[C@H]1C(=O)N[C@@H](Cc1ccccc1)C(=O)N[C@@H](CO)C(=O)N[C@@H](CCCNC(N)=O)C(=O)N[C@H](C(=O)N[C@H](C(=O)N[C@@H](Cc1c[nH]cn1)C(=O)N[C@@H](CC(C)C)C(=O)N[C@@H](Cc1ccc(O)cc1)C(=O)N[C@@H](CCCNC(N)=O)C(=O)N[C@@H](CC(N)=O)C(=O)NCC(=O)N[C@@H](CCCCN)C(N)=O)C(C)C)C(C)C)C(C)C,mouse bone marrow-derived dendritic cells,MTT,up to 3 µM,reference: untreated,62%
CC1(C)C=Cc2c(cc(O)c3c(=O)cc(-c4ccccc4)oc23)O1,retinoic acid-differentiated SH-SY5Y,MTT,"10 µM, 24 h",reference: control,92.6 ± 1.2%
CCCCCCCCCCCCCCCC(=O)N[C@@H](CCCCN)C(=O)N1CCC[C@H]1C(=O)N[C@H](C(N)=O)C(C)C,murine cells,MTT,"50 µM, 2 h, medium without FBS",reference: untreated,≥ 85.5%
O=C(CN1CCN(c2cc3c(cc2F)c(=O)c(C(=O)O)cn3C2CC2)CC1)Nc1ccc(Cl)cc1,KLE GOF p53,MTS,"10 µM, 72 h",,102 ± 3%
CCN(CC)CC#CCOC(=O)[C@]1(C)CCC[C@]2(C)[C@H]3C[C@H]4C(C(C)C)=C[C@]3(CC[C@H]21)[C@@H]1C(=O)CCC(=O)[C@@H]14,BHK-21-hACE2,,"20.0 µM, 48 (unit not given)",,112%
N[C@H](CC[As](O)O)C(=O)O,MDA-MB-231,,"10 µM, 72 (unit not given)",,~64%
Cc1cc(O)c2c(C(=O)[O-])[n+]3n(c2c1)CCCC3,HepG2,"cell growth or viability, CCK-8","40 µM, 24 h",,73.8%
CC(C)C1=CC2=CC[C@@H]3[C@](C)(CCC[C@@]3(C)C(=O)OCC#CCN3CCCC3)[C@H]2CC1,BHK-21-hACE2,,"20.0 µM, 48 (unit not given)",,98.8%
N=C(N)NCCC[C@H](NC(=O)[C@H](CCCNC(=N)N)NC(=O)[C@H](CCCNC(=N)N)NC(=O)[C@H](CCC(N)=O)NC(=O)[C@H](CCCNC(=N)N)NC(=O)[C@H](CCCNC(=N)N)NC(=O)[C@H](CCCCN)NC(=O)[C@H](CCCCN)NC(=O)[C@H](CCCNC(=N)N)NC(=O)CN)C(=O)O,BEAS-2B,MTT,"concentration not given, outcome not toxic",,not toxic
CC(C)C1=C[C@@]23CC[C@@H]4[C@](C)(CCC[C@@]4(C)C(=O)OCC#CCN4CCCC4)[C@H]2C[C@@H]1[C@H]1C(=O)CCC(=O)[C@H]13,BHK-21-hACE2,,"20.0 µM, 48 (unit not given)",,115%
COc1cc2c(cc1OC)C(=O)C(=Cc1ccc(N3CC[N+](C)(C)CC3)cc1)C2,PC-12,"cell viability, MTT","concentration not given, 48 h",,no effect
CCN(CC)CC#CCOC(=O)[C@]1(C)CCC[C@]2(C)c3ccc(C(C)C)cc3CC[C@@H]12,BHK-21-hACE2,,"20.0 µM, 48 (unit not given)",,86%
CC[C@H](C)[C@H](NC(=O)[C@@H](N)CCCNC(=N)N)C(=O)N[C@@H](CC(N)=O)C(=O)N[C@@H](CC(N)=O)C(=O)N[C@H](C(=O)N1C[C@@H](n2cc([C]34[CH]5[CH]6[CH]7[CH]3[Fe]6754389%10[CH]4[CH]3[CH]8[CH]9[CH]4%10)nn2)C[C@H]1C(=O)N[C@@H](Cc1c[nH]c2ccccc12)C(=O)N[C@@H](CO)C(=O)N[C@@H](CCC(=O)O)C(=O)N[C@@H](C)C(=O)N[C@@H](CCSC)C(=O)N[C@@H](CCSC)C(N)=O)[C@@H](C)CC (stereo partly drawn),P4-CCR5,MTT,"up to 59 µM, 2 h",,no effect
C[C@H](c1cccc2ccccc12)N1CCC(C(=O)NCc2cc(F)cc(NC(=O)CN(C)C)c2)CC1,hACE2-HeLa,CellTiter-Glo,"10 µM, 72 h",reference: untreated,~60%
COc1ccc(C(=O)CCl)c2c1C(=O)CO2,HMC3 GRN luciferase reporter clone,ATP-based,"11 µM, 72 h, 10% FBS",,> 75%

# Excerpt of the above:
Compound,cell line,assay,conditions,scale,viability
CC1(C)C=Cc2c(cc(O)c3c(=O)cc(-c4ccccc4)oc23)O1,retinoic acid-differentiated SH-SY5Y,MTT,"10 µM, 24 h",reference: control,92.6 ± 1.2%
CCCCCCCCCCCCCCCC(=O)N[C@@H](CCCCN)C(=O)N1CCC[C@H]1C(=O)N[C@H](C(N)=O)C(C)C,murine cells,MTT,"50 µM, 2 h, medium without FBS",reference: untreated,≥ 85.5%
